Experimental data from different studies.
Every numbered part comes from another study and shows a few of its results, in no order. Values joined by “and” are separate records of one study, mostly repeats; a detail may differ.
Chain of UniProt Q96SB4 (whole entry, looked up): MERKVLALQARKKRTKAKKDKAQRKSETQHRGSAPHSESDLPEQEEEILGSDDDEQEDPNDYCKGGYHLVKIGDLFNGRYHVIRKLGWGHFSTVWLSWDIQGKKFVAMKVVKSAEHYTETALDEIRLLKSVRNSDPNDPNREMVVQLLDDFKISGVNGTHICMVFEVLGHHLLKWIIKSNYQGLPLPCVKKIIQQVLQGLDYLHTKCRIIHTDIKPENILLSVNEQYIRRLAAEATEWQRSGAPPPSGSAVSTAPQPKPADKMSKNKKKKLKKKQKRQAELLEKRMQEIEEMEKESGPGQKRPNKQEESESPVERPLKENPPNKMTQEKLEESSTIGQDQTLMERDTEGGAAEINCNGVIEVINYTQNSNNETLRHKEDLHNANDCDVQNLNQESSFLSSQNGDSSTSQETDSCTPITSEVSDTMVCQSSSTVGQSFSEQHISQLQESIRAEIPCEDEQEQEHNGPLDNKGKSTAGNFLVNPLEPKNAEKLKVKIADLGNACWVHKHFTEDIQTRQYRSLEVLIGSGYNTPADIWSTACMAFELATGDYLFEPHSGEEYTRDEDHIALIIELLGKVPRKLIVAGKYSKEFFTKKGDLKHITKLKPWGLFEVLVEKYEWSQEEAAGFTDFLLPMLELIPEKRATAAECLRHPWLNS
Chain of UniProt Q9UL54 (whole entry, looked up): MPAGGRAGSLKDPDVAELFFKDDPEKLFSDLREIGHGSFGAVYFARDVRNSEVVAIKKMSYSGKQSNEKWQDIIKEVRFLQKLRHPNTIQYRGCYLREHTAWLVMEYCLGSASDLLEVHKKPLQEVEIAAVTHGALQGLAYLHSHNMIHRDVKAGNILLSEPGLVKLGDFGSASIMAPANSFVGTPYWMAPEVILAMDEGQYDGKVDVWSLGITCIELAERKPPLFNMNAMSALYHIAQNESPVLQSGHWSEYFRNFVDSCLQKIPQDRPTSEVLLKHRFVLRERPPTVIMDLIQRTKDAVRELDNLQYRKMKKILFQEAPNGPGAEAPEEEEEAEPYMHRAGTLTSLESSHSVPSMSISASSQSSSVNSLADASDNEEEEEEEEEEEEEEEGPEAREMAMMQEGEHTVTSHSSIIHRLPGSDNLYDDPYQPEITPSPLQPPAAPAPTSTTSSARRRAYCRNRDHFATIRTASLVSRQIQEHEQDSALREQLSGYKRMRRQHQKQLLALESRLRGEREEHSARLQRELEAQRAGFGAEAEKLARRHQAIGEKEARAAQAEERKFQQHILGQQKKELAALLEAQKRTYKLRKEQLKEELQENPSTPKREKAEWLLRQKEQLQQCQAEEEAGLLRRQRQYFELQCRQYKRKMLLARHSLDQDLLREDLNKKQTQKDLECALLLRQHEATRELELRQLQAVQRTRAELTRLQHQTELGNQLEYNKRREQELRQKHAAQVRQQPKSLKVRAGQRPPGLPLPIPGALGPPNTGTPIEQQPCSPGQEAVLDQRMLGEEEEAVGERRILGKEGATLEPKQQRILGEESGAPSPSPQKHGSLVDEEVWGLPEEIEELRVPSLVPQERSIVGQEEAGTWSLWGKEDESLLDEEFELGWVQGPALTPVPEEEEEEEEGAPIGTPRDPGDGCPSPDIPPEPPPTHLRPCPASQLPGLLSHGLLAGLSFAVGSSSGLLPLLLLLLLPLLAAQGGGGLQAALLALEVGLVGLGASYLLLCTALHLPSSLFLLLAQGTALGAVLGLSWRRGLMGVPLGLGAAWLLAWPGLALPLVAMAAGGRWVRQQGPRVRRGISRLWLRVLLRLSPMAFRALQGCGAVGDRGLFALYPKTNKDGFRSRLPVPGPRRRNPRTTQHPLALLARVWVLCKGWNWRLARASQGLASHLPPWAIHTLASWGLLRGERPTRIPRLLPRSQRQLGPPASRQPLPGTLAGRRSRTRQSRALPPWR
Chain of UniProt Q9NRP7 (whole entry, looked up): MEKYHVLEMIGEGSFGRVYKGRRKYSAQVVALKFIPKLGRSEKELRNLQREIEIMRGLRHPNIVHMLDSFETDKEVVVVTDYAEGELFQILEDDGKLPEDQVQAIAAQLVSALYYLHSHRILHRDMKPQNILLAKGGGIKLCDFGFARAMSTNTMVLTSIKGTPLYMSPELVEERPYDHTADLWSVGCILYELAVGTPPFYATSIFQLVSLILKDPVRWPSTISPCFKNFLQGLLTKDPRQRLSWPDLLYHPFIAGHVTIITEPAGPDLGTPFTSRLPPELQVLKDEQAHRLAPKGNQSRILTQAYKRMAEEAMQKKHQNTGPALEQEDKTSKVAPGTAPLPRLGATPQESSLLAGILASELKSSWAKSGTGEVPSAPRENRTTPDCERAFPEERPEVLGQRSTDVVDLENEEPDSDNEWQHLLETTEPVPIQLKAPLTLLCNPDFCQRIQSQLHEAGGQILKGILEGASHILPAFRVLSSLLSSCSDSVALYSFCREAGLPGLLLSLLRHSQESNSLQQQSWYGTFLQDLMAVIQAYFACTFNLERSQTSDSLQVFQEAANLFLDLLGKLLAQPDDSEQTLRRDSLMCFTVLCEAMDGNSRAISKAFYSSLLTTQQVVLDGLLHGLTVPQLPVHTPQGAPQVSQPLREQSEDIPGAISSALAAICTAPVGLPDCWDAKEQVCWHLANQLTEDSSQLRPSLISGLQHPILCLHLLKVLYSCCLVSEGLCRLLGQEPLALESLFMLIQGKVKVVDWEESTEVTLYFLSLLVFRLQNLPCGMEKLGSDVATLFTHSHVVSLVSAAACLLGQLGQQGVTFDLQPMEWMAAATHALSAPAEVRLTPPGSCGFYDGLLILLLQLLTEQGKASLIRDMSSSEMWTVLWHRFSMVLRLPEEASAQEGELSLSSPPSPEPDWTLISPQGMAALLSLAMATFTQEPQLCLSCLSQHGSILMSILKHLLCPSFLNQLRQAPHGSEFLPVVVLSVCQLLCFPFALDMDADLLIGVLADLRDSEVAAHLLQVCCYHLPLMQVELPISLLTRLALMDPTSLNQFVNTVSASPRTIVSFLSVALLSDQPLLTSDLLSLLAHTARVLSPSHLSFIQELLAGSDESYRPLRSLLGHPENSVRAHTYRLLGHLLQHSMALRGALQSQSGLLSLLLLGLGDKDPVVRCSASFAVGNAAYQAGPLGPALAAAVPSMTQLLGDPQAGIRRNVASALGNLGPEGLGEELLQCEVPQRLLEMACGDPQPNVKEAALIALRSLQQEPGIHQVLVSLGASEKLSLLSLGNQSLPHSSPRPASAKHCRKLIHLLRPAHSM
Chain of UniProt O14936 (whole entry, looked up): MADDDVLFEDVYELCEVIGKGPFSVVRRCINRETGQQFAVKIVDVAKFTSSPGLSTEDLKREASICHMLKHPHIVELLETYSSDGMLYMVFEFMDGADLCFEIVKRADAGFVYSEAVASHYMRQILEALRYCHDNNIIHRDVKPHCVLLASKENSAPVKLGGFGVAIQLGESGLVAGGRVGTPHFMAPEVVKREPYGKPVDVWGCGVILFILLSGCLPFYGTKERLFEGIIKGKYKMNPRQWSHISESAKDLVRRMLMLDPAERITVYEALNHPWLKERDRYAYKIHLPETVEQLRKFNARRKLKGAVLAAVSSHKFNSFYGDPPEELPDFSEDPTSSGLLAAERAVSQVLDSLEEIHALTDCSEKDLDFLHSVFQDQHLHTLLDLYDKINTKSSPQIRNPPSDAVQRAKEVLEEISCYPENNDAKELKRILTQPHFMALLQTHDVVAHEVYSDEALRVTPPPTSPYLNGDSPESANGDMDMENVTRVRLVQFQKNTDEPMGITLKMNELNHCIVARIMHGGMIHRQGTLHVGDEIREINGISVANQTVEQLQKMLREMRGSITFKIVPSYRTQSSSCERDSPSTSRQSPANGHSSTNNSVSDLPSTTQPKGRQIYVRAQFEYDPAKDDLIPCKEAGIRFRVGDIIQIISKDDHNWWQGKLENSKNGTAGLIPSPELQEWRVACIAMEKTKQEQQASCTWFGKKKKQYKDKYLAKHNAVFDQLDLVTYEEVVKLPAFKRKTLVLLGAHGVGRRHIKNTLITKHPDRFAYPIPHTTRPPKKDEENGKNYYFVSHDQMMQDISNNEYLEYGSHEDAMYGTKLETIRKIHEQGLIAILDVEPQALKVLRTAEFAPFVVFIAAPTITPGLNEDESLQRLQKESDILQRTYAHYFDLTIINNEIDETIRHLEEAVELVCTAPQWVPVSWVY
Chain of UniProt Q9H0K1 (whole entry, looked up): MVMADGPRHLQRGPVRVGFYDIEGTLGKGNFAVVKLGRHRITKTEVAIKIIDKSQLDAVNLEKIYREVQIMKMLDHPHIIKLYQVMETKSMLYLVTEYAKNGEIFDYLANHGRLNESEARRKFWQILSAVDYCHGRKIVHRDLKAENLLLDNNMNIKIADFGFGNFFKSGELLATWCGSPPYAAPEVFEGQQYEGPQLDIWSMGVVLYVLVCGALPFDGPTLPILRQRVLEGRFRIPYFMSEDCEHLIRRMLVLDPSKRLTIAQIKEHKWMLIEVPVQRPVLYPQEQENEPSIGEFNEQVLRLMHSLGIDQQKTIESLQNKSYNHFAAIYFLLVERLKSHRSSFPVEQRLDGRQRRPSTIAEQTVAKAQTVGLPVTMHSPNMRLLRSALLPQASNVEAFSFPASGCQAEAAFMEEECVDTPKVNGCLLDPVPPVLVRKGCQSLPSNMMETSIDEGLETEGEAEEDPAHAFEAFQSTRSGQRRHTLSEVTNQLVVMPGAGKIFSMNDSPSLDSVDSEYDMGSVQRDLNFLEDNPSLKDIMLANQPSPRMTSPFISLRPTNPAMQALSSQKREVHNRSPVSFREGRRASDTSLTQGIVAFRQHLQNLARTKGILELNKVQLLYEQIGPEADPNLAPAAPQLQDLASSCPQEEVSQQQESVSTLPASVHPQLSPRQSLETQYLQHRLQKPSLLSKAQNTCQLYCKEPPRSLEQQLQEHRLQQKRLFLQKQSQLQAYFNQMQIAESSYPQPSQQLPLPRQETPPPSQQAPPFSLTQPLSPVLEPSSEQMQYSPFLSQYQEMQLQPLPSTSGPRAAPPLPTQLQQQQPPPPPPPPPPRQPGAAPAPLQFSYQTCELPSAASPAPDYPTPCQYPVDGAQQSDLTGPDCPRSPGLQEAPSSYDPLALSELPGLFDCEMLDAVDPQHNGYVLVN

Study 1
Target: TAR DNA-binding protein 43, full length, His tag (TARDBP, Homo sapiens, UniProt Q13148, residues 1-414)
Technique: RNA Bind-n-Seq
Form: RNA
Matrix: in vitro
Concentration: 20 nM
Setting: 6-mer, flanks averaged, single round
With: 150 mM LiCl
Relative to: input library
Direction: higher = stronger binding
`UUAUGU` — result for “6-mer enrichment (R)”: 1.29.
For `UCUAAA`, “6-mer enrichment (R)” read 0.843.
Under “6-mer enrichment (R)”, `CCACUC` is recorded as 0.899.
`AAAGCA` — result for “6-mer enrichment (R)”: 0.809.
For `CAAACC`, “6-mer enrichment (R)” read 0.836.
`UCACUG`: “6-mer enrichment (R)” 0.859.
For `AUCGAU`, “6-mer enrichment (R)” read 0.823.
`CACUGG`: “6-mer enrichment (R)” 0.894.

Study 2
Compound: CC(C)n1cnc(-c2ccc(F)cc2)c1-c1ncc(C(=O)Nc2ccc(N3CCN(C)CC3)cc2)[nH]1
Technique: phase 2a trial
Species: idiopathic pulmonary fibrosis patients
For dose not given, adverse event grade 4, all dose arms pooled: “patients with abdominal distension” read 0%.
The “patients with abdominal distension” was 0% (60 mg once daily, adverse event grade 3).
It gave 0% for “patients with abdominal distension” (60 mg once daily, adverse event grade 5).

Study 3
Species: human
Matrix: microsomes or S9
Concentration: 2 µM
Time: 0.5 h
`c1ccc(-c2nc(-c3ccc(-c4noc(-c5ccco5)n4)cc3)cs2)cc1` has a remaining compound of 18.1%.
`Cn1c(=O)c2c(-c3ccncc3)c(Nc3ccccc3)oc2c2ccccc21` has a remaining compound of 73.2%.
With `Nc1[nH]nc(-c2ccc(Br)s2)c1-c1ccc2c(c1)OCO2` the remaining compound was 74.3%.

Study 4
SMILES: CCCOc1ccc([C@@H]2[C@@H](C(=O)O)[C@H](c3ccc4c(c3)OCO4)CN2CC(=O)Nc2c(CC)cccc2CC)cc1
Effect on: cell-free assay
Technique: competition with immobilised ligand
Concentration: 1 µM
The remaining binding was 68% (PIK3CA (Homo sapiens, UniProt P42336, E545K)).
The remaining binding was 59% (VRK2 (Homo sapiens, UniProt Q86Y07)).
For MKNK1 (Homo sapiens, UniProt Q9BUB5): remaining binding read 73%.
FLT3 (Homo sapiens, UniProt P36888, ITD) — remaining binding: 91%.
The remaining binding was 91% (TAOK2 (Homo sapiens, UniProt Q9UL54)).
The remaining binding was 100% (TBK1 (Homo sapiens, UniProt Q9UHD2)).
The remaining binding was 94% (SRPK1 (Homo sapiens, UniProt Q96SB4)).
For Ribosomal protein S6 kinase alpha-2, N-terminal kinase domain (RPS6KA2, Homo sapiens, UniProt Q15349): remaining binding read 100%.
The remaining binding was 89% (CASK (Homo sapiens, UniProt O14936)).
It gave 96% for remaining binding (SIK2 (Homo sapiens, UniProt Q9H0K1)).
MAPK4 (Homo sapiens, UniProt P31152) — remaining binding: 95%.
MKNK2 (Homo sapiens, UniProt Q9HBH9) — remaining binding: 87%.
For COQ8B (Homo sapiens, UniProt Q96D53): remaining binding read 89%.
For STK36 (Homo sapiens, UniProt Q9NRP7): remaining binding read 88%.
It gave 73% for remaining binding (PIK3CG (Homo sapiens, UniProt P48736)).

Mixed results
`CCCCNC(=O)NS(=O)(=O)c1ccc(C)cc1`: “nuclear SOX9 intensity” 98 % of DMSO (mouse MPNST tumor cells; high-content immunofluorescence imaging, item: nuclear SOX9; 10 µM, 12 h, mean of 2 replicates; relative to: DMSO control, higher = more nuclear SOX9).
`c1ccc(Oc2ccc(Nc3c4c(nc5ccccc35)CCC4)cc2)cc1` gave a cytotoxicity of 4% and 5% (HepG2; resazurin; 0.0066 µM, 48 h).

Some of these lines once more (study 4):
The remaining binding was 94% (SRPK1 (Homo sapiens, UniProt Q96SB4)).
For Ribosomal protein S6 kinase alpha-2, N-terminal kinase domain (RPS6KA2, Homo sapiens, UniProt Q15349): remaining binding read 100%.
The remaining binding was 89% (CASK (Homo sapiens, UniProt O14936)).
It gave 96% for remaining binding (SIK2 (Homo sapiens, UniProt Q9H0K1)).
